Assay results from different studies.
Parts stem from different laboratories: compare values within a part only.

Study 1 — method: protein binding microarray; form: double-stranded DNA, one strand shown; medium: in vitro; tested at: not given; relative to: not given; direction: higher = stronger binding; endpoint: E-score
Target: Histone acetyltransferase KAT6A, both winged helices, GST fusion (KAT6A, Homo sapiens, UniProt Q92794, residues 1-181)
Notes: 8-mer, flanks averaged, mean of 2 arrays, mostly near background
Construct (chain): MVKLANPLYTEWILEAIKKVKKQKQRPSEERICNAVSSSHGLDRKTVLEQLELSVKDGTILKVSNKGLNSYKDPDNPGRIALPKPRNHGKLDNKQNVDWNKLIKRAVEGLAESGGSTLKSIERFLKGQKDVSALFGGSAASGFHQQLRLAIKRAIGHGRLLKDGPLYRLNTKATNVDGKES
CTTCAGGC: -0.0165
CAAGTCTC: -0.216
CGAATCCC: -0.0342
ACACAAGC: -0.0546
AGGGAGTC: -0.179
GCCCACCA: -0.215
CCCACCTC: -0.178
TCTCCTCA: -0.0648
CCTCACCC: -0.104
AAGGCATT: -0.289
CAGCGGGA: 0.236
GTGGACTA: -0.115
CCCCCAGA: -0.377
AGCCTGCA: -0.186
AAAGCATA: 0.00585
AAGGGTCA: -0.161
ATGATTGG: -0.15
CCCGACAC: 0.0394
ACTGGGTG: -0.189
ACAGCTCG: -0.0385
ACACTGGC: -0.0625
AGGCGCAG: 0.0474
AGCCCCCC: -0.296
AATGTTGT: -0.0664

Study 2 — method: RNA Bind-n-Seq; form: RNA; medium: in vitro; tested at: 20 nM; notes: 6-mer, flanks averaged, single round; with: 150 mM LiCl; relative to: input library; direction: higher = stronger binding; endpoint: 6-mer enrichment (R)
Target: TAR DNA-binding protein 43, full length, His tag (TARDBP, Homo sapiens, UniProt Q13148, residues 1-414)
AGCGUA: 0.923
UUUACA: 0.954
CAUUUU: 1.2
CCCUCA: 1.05
GUAUGA: 1.34
UCUACA: 0.83
AUGCAA: 0.887
GGACCU: 0.94
GGGGGC: 1.44
GCUGUU: 1.07
UGUUCG: 1.05
AGUUGC: 0.99
GGUCGG: 1.19
GUACCA: 0.875
AUAAAC: 0.858
CUAUGU: 1.02
CCGGAA: 0.869
ACGGGC: 0.939
GUUGAU: 1.08
UUGCAG: 0.981
ACCCAC: 0.972

Study 3 — method: RNA Bind-n-Seq; form: RNA; medium: in vitro; tested at: not given; relative to: input RNA pool; direction: higher = stronger binding; endpoint: bound/input enrichment
Target: RING finger protein unkempt homolog, zinc fingers 1-6, GST-SBP tag (UNK, Homo sapiens, UniProt Q9C0B0, residues 30-357)
Notes: RNA with constant flanks, human and mouse sites, ends assumed
Construct (chain): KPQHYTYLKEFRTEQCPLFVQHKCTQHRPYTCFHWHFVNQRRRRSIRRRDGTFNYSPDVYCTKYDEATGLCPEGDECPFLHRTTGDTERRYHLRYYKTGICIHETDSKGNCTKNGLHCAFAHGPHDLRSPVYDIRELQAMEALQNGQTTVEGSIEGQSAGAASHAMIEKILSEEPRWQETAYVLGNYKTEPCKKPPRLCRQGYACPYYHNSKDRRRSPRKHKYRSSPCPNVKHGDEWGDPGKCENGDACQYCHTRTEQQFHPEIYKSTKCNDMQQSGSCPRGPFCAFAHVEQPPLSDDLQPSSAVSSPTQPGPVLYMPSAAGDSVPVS
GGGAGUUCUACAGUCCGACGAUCACUACAAAGAGAAUUGUCGAGAACGGUCAAGAAAGAGUAGAAGUUGAAGAAGAUGGCCAGUUAAAGUCCUUAACAAUAAAUGGUAAGGAGCAGCUGCUGCGCUUGGAUAACAAGUAAUUCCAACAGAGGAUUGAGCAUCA: 0.296 ratio
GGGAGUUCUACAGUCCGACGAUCGAGGAUCCGGAACUGGCUAAGUCUUUUAUUAAGACAUUAUUUGGUGUUCUUUAUGAAGUGUAUAGUUCCUCAGCAGGACCUGCGGUCAGACAUAAGUGCCUUAGAGCAAUUCUUAGGAUACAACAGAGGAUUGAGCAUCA: 0.516 ratio
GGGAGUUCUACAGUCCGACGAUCGCGUCGCCGGAAACCCAGGGAACCUCUCUGAAGUGACACCUCACCCCUACACACCGUCCGUUCACCCCCGUCUCUUCCUUCUGCUUUUCGGUUUUUGGAAAGGGAUCCAUCUCCAGGCAGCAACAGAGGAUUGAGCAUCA: 0.135 ratio
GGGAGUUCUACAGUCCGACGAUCGGUGAACUGGCAGCAGAGGUGGCGAGCAGCAAUGGAUACACUUGCCGUGACUGCAGGAUGCUCUCAGCGCGCACUGACGCACUCACAGCCCACUCUGCCAUCCACGGGACCACCUCCAGGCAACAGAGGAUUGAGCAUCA: 0.0604 ratio
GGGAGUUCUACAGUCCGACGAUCCAACAGACCUGCCCACUGUGCAAGUUCAACGUCCUGGGGAACCACUACUCAGAUGACUAACUGCCCCAGUGGAAAGUCUGCAGUUCGGGACGGACCCUUCCCAGCCUACACUACAGGAGACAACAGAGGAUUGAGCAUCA: 0.112 ratio
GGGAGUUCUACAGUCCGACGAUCGAAGAUCCGGAACUGGCUAAGUCUUUCAUUAAGACCUUGUUUGGUGUUCUCUAUGAAGUGUACAGCUCCUCAGCAGGCCCUGCGGUCAGACACAAGUGCCUUAGAGCAAUUCUUAGGAUACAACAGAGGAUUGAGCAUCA: 0.316 ratio
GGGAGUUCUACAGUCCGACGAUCGAAAUUUCCUUGUAUAUCCCCAAAAUGCUAACUGAAGAACGCCAUCUUCAUGAACUUGACAUAGUGCCUCCUUUACCUUUUUUUCCUAAGGCUCACACCGAAACCUCCAGGGCCAAGUGACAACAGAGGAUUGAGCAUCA: 0.46 ratio
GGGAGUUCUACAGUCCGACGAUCCCAACAGGGGAAGCAGCAGCUAAUACCCAGCAGACACUUACUUUCUAUGAGCUAGACCUUGGUUUAAAUCAUGUGGUCCGAAAAUACAGUGAACCUUUGGAGGAACACGGCAACUUCCUUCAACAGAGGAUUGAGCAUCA: 0.193 ratio
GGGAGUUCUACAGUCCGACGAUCCUGUCACACUCCAAGGGCCACCAGAAGCGCAAGGCCCUCAAGACCACAGUCAUCCUCAUCCUGGCUUUCUUCGCCUGUUGGCUGCCUUACUACAUUGGGAUCAGCAUCGACUCCUUCAUCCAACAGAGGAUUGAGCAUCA: 0.144 ratio
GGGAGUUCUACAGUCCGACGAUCGGCGCGUGGGGCUGUUUGGUCCCCUCCGGAGUGCGGUGAGGCGGGCCGAGCCGGGACUGCCUGGGUUUGGGGAUAACGUUCCCAUCUCCACCCCUGUUGCAGCAAGGGAAAUUGAGGCUGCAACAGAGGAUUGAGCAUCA: 0.203 ratio
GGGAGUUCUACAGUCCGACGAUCUUGCCAUAUUAAUCAUCUUAGUUCCAUACACACUGAGACUUUAAAAGGGAAAAACCACUCUAGCAAAUAAUUGUCAAUUAUAAACCUGUAUGUAAAACAUUCUUGAAAACCUAGAGUUGGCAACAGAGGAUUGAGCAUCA: 1.12 ratio

Study 4 — organism: Saccharomyces cerevisiae; observed: binding; method: competitive growth deep sequencing; form: peptide; strain: cyclin D3-Cln2 fusion strain; notes: peptide tiling library; direction: direction not given; endpoint: enrichment score
LRRKLFLDGNGSIS: -1.15
RKLDLEGIGR: -0.161
NFETPEAETPIRSPFK: 1.2
PQWPCGKHKRVLIFAS: -1.54
KVKRRLDLDIDGLQKE: -0.237
SCCKRKLVVGNGPEGP: -1.5
PPTFLSTGEIHAFLSS: -0.294
TTTTSPRTPPPLTVQD: 2
RKLHFEDEVT: -0.0723
VSRNLRSSLKSSLHTL: -3.21
LRRQLSFSED: 0.153
PPKPLKKLRFDIEGSD: -0.127
GFGFLLFICKLTF: -0.803
RRVLCFDS: -1.44
NNIRKALSFDNRGEEH: 0.862
ARKRLELGNLGNPQ: -1.53

Study 5 — method: RNA Bind-n-Seq; form: RNA; medium: in vitro; tested at: 1 µM; notes: whole 134-nt RNA, ends assumed; with: 150 mM KCl; relative to: input library; direction: higher = stronger binding; endpoint: log2 enrichment
Target: Ras GTPase-activating protein-binding protein 1, C-terminal RGG region (G3BP1, Homo sapiens, UniProt Q13283)
Chain of UniProt Q13283 (whole entry, looked up): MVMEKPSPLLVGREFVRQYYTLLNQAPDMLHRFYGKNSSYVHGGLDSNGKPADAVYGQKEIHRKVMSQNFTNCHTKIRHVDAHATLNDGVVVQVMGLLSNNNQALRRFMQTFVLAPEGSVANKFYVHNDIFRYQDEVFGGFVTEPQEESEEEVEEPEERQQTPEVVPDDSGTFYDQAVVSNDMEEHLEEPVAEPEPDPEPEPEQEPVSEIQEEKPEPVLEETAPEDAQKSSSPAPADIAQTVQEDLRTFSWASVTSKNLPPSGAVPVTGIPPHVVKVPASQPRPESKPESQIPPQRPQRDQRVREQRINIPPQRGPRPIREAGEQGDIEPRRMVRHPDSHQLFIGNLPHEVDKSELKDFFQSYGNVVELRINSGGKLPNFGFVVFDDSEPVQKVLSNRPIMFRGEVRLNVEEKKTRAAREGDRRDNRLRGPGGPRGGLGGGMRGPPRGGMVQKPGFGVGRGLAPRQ
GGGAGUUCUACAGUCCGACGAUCUGGCCCUGGUGGCAUGCGGGGAGGAAGAGGUGGCCUCAUGGAUCGUGGUGGUCCCGGUGCAAUGUUCAGAGGUGGCCGUGGUGGAGACAGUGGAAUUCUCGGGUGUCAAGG: 1.49
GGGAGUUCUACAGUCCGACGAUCACCAUGCAGGUGGGCAUCUUUGGGAAGUGGGGCAAGGGGGGGGUAGGGAGGGGGGUAACACUUUGGGAACAGGUGGUCCCAGGUCGUUUCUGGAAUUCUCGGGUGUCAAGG: 1.98
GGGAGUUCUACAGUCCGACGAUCUGGCCCUGGUGGCAUGCGGGGAGGAAGAGGUGGCCUCAUGGAUCGUGGUGGUCCCGAUGGAAUGUUCAGAGGUGGCCGUGGUGGAGACAGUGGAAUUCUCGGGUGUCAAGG: 1.93
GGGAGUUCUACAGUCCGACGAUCCCUCAAGUCCUGUGCUACACAUCGUAUGUACCGAAUCGGGUGGGUGGGUGGGAAAGUAUUAUGUUACGCCGUUCGGAUCUGCACUUCCAGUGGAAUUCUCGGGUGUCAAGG: 1.81
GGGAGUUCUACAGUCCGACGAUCCCUGUGCUACACAUCGUAUGUACCGAAUCGGGGUUUUUUGGGGUUUUUUGGUUUUUUGGGAAAGUAUUAUGUUACGCCGUUCGGAUCUGCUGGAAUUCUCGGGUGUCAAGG: -1.33
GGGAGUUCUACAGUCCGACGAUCCCUGUGCUACACAUCGUAUGUACCGAAUCGGGGUUUUUUGGUUUUUUGGGUUUUUUGGGGAAAGUAUUAUGUUACGCCGUUCGGAUCUGCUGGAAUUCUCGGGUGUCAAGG: -1.8
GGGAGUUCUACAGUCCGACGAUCCUGUGCUACACAUCGUAUGUACCGAAUCGGGGAAAAAAAGGGGAAAGGGGAAAAAAAGGGGAAAGUAUUAUGUUACGCCGUUCGGAUCUGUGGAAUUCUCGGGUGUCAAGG: -0.332
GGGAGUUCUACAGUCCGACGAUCUCCUCAAGUCCUGUGCUACACAUCGUAUGUACCGAAUCGGAGGUUUGGUGGAAAGUAUUAUGUUACGCCGUUCGGAUCUGCACUUCCAGCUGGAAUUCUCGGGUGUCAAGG: -1.24
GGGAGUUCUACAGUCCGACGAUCCUCAAGUCCUGUGCUACACAUCGUAUGUACCGAAUCGGGAGGGAGGGAAAGGGAAAGUAUUAUGUUACGCCGUUCGGAUCUGCACUUCCAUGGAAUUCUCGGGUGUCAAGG: 2.05
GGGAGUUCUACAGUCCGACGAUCAGUCCUGUGCUACACAUCGUAUGUACCGAAUCGGGGUUUGGGGUUUGGGGAAAGGGGAAAGUAUUAUGUUACGCCGUUCGGAUCUGCACUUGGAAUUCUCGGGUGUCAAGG: 3.88

For quick reference, copied from above (study 3):
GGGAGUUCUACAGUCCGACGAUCACUACAAAGAGAAUUGUCGAGAACGGUCAAGAAAGAGUAGAAGUUGAAGAAGAUGGCCAGUUAAAGUCCUUAACAAUAAAUGGUAAGGAGCAGCUGCUGCGCUUGGAUAACAAGUAAUUCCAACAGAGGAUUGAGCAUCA: 0.296 ratio
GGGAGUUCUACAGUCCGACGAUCGAAAUUUCCUUGUAUAUCCCCAAAAUGCUAACUGAAGAACGCCAUCUUCAUGAACUUGACAUAGUGCCUCCUUUACCUUUUUUUCCUAAGGCUCACACCGAAACCUCCAGGGCCAAGUGACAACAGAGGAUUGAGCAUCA: 0.46 ratio
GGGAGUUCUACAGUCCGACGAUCUUGCCAUAUUAAUCAUCUUAGUUCCAUACACACUGAGACUUUAAAAGGGAAAAACCACUCUAGCAAAUAAUUGUCAAUUAUAAACCUGUAUGUAAAACAUUCUUGAAAACCUAGAGUUGGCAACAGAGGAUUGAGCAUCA: 1.12 ratio
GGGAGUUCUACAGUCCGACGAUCGAAGAUCCGGAACUGGCUAAGUCUUUCAUUAAGACCUUGUUUGGUGUUCUCUAUGAAGUGUACAGCUCCUCAGCAGGCCCUGCGGUCAGACACAAGUGCCUUAGAGCAAUUCUUAGGAUACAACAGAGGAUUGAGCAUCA: 0.316 ratio
